# Results gathered from unrelated publications.
# Compare with care: the assays were run in different laboratories.
Compound,test,test system,conditions,adverse event incidence
Cc1c(C(=O)O)ccc2c3n(nc12)[C@@H]1[C@H](C3)N(CC2CC2)[C@@]2(C(=O)Nc3cc(Cl)ccc32)[C@H]1c1cccc(Cl)c1F,"phase Ia trial, item: Fatigue",cancer patients,"oral, dose not given, all patients all grades",59.3%
Cc1c(Cl)c(C)[n+]([O-])c(Cl)c1-c1noc(-c2cc(O)c(O)c([N+](=O)[O-])c2)n1,item: Moderate severity,healthy Chinese subjects,"oral, 50 mg, 10 days",0%
CC(C)n1c(Nc2cccnc2)nc2cnc(Nc3ccc(N4CCN(C)CC4)cc3)nc21,item: Hypertriglyceridaemia,healthy male subjects,"oral, 150 mg, with: rifampin",0%
CC(=O)O[C@H]1C(=O)[C@@]2(C)[C@H]([C@H](OC(=O)c3ccccc3)[C@]3(O)C[C@H](OC(=O)[C@H](O)[C@@H](NC(=O)c4ccccc4)c4ccccc4)C(C)=C1C3(C)C)[C@]1(OC(C)=O)CO[C@@H]1C[C@@H]2O,item: peripheral neuropathy,patients with advanced solid tumours,"intravenous, dose not given, grade 3 and 4, possibly related to drug",4%
CC[C@H](C)CCCCC(=O)N[C@@H](CCN)C(=O)N[C@H](C(=O)N[C@@H](CCN)C(=O)N[C@H]1CCNC(=O)[C@H]([C@@H](C)O)NC(=O)[C@H](CCN)NC(=O)[C@H](CCN)NC(=O)[C@H](CC(C)C)NC(=O)[C@@H](Cc2ccccc2)NC(=O)[C@H](CCN)NC1=O)[C@@H](C)O,item: gastrointestinal disorders,normal renal function,"intravenous, 0.75 mg/kg",75%
FC(F)(F)c1ccc(CNc2ccc(Cc3c[nH]c4ncc(Cl)cc34)cn2)cn1,item: Anaemia,patients with advanced solid tumours,"oral, dose not given, all grades, possibly related to drug",33%
O=C1CCc2ccc(OCCCCN3CCN(c4cccc(Cl)c4Cl)CC3)cc2N1,item: Constipation,"genotyped patients, CYP2D6 intermediate metabolizers","dose not given, long-acting oral or depot",10%
Cc1ccc(Sc2ccccc2N2CCNCC2)c(C)c1,TEAE abdominal distension,healthy adult men,"oral, 40 mg single dose, 10 days",0%
